Experimental data pooled from the literature.
Numbered parts are unrelated; each lists some results of a single study. Substitutions count along the parent as printed.

Study 1
Target: ABI1, truncated, D143A, DHFR fusion (Arabidopsis thaliana)
Method: DHFR PCA, deep sequencing
Sample: yeast
Setting: methotrexate growth selection, single substitutions
Together with: (+)-ABA 200 µM
Reference: wild-type fitted maximum
Reading: higher = stronger binding
Parent: PYL1, truncated, DHFR fusion (Arabidopsis thaliana); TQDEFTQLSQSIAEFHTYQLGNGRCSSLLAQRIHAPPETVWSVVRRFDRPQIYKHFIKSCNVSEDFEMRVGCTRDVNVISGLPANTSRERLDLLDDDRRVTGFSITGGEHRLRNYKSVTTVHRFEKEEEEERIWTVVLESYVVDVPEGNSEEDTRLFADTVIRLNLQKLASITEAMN; partner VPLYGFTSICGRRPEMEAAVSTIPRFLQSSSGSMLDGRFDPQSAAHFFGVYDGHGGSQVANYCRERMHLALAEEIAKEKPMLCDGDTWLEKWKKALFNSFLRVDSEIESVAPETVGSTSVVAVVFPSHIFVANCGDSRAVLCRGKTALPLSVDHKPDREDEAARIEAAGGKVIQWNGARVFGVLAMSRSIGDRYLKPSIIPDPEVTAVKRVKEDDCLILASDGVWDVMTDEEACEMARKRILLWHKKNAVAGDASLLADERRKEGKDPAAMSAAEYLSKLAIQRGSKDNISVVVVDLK
For `E109F`, “relative binding score” read 66.5%.
`S63R` — result for “relative binding score”: 100%.
For `E128H`, “relative binding score” read 103%.
Under “relative binding score”, `P50I` is recorded as 15%.
For `D144V`, “relative binding score” read 52.5%.
`L82K`: “relative binding score” 3.37%.
`Q51C` — result for “relative binding score”: 105%.
`K116Y` — result for “relative binding score”: 38.5%.
For `N114L`, “relative binding score” read 7.85%.
For `N77G`, “relative binding score” read 101%.
`V62A` — result for “relative binding score”: 80.6%.
`R74L`: “relative binding score” 4.05%.
`N165V` — result for “relative binding score”: 0.247%.
`D65H`: “relative binding score” 104%.
`Q19D`: “relative binding score” 96.3%.
`D95E`: “relative binding score” 62.7%.
`L138I`: “relative binding score” 83.5%.

Study 2
Target: Phosphate system positive regulatory protein PHO4, full length, GST-tagged (PHO4, Saccharomyces cerevisiae, UniProt P07270, residues 1-312)
Chain of UniProt P07270 (whole entry, looked up): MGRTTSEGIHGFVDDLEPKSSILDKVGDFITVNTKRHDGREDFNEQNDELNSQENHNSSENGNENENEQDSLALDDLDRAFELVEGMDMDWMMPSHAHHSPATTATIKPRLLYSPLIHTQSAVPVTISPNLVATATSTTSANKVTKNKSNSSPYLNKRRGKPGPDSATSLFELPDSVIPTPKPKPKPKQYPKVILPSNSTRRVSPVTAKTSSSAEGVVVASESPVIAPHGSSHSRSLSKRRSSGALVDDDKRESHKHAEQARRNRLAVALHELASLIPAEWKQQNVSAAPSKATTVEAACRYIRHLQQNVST
Method: competition protein-binding microarray
Form: double-stranded DNA, one strand shown
Sample: in vitro
Tested at: 2 µM
Setting: whole 60-bp probe, lowest competitor level
Together with: Cbf1 competitor, 0.05 µM
Reading: higher = stronger binding
`GCCATGTTTATTAAACTCGTGTATCCATAAGGACTCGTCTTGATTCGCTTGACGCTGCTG` gave a fluorescence intensity of 9480 a.u.
The fluorescence intensity of `ACCCAAACTGTGTGGAACGTGACGGAATTGCATTTGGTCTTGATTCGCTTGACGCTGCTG` is reported as 13200 a.u.
The fluorescence intensity of `CCCCGCTCTTGTTTTCGCGTGCCGATTCTACAATAAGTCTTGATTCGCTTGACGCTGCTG` is reported as 6380 a.u.
For `GTCGAAAGATGACCTCACGTTGCAGCCACCGACACAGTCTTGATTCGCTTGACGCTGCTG`, the fluorescence intensity was 8940 a.u.
The fluorescence intensity of `CACCACTTCTCAAAGAACGTGCAAATAACTCTTCCAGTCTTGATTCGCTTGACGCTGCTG` is reported as 14500 a.u.
`CGTCCTAGTGATTGGCCAGTGGGTGCCATGAGGAAGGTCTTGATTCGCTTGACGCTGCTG` gave a fluorescence intensity of 6420 a.u.
For `CTAACGAAGGTTTGTATCGTGGGTGACAAGCCAAGTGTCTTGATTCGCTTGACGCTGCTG`, the fluorescence intensity was 7790 a.u.
The fluorescence intensity of `TACATCTTTGGCAGCCACGTTTCCCAATACATGGAAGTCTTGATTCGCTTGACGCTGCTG` is reported as 14500 a.u.
For `AAATTACTAAGTTGTCACAAAACTTACCCCGTATGAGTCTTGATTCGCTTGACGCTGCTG`, the fluorescence intensity was 2950 a.u.
For `AAATTACTAAGTTGTCACGTGTTTTACCCCGTATGAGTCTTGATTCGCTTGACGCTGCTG`, the fluorescence intensity was 14200 a.u.
The fluorescence intensity of `CGTCCTAGTGATTGGCACGTGTTTTCCATGAGGAAGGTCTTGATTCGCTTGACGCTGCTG` is reported as 17600 a.u.
`TGGGACAAAAATGATACCGTGATGGGCCAAAGTAGAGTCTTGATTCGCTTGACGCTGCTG` gave a fluorescence intensity of 4000 a.u.
`CGGGGTTAAGTTTTTCACGTGTACTGCTTGCAGCAGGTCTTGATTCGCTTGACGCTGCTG` gave a fluorescence intensity of 10500 a.u.
With `CTTGGGCAAGCGAGTCACGTACTTTTTTTTTTTTTTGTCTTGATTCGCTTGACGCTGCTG` the fluorescence intensity was 4550 a.u.
`CAACCAGTTGCGCAGGGCGTGCCAGATGAACGCTCTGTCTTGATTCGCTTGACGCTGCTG` gave a fluorescence intensity of 8600 a.u.
The fluorescence intensity of `AAGCCACTTTTCCATCACGTTTCTTAGCGTTATTCCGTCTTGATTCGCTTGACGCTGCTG` is reported as 12200 a.u.

Study 3
Target: CCND3, cyclin fold, Cln2 fusion (human)
Method: yeast growth competition, sequencing
Sample: yeast
Setting: weak parent motif
Reference: not given
Reading: higher = stronger binding
Parent: ORC1 docking peptide (human); PRARKRLELGNLG
For `PRARKRLTLGNLG [E8T]`, “normalised enrichment score” read 0.0455.
For `PRLRKRLELGNLG [A3L]`, “normalised enrichment score” read 0.0941.
`PRARKRLEHGNLG [L9H]` — result for “normalised enrichment score”: 0.159.
`PRARKRLELGNLH [G13H]` — result for “normalised enrichment score”: 0.119.
`PRARKRFELGNLG [L7F]`: “normalised enrichment score” -0.0129.
For `PRARKELELGNLG [R6E]`, “normalised enrichment score” read 0.116.
`PRARKRLQLGNLG [E8Q]` — result for “normalised enrichment score”: 0.138.
For `PWARKRLELGNLG [R2W]`, “normalised enrichment score” read 0.217.
For `PRARMRLELGNLG [K5M]`, “normalised enrichment score” read 0.0387.
`PRPRKRLELGNLG [A3P]`: “normalised enrichment score” 0.12.
Under “normalised enrichment score”, `PRARKRLEVGNLG [L9V]` is recorded as 0.243.
For `PMARKRLELGNLG [R2M]`, “normalised enrichment score” read 0.173.
For `PRIRKRLELGNLG [A3I]`, “normalised enrichment score” read 0.216.
`PRARKRLELGNLV [G13V]` — result for “normalised enrichment score”: 0.095.
For `PRARKRLMLGNLG [E8M]`, “normalised enrichment score” read 0.0534.
`PRARKVLELGNLG [R6V]` — result for “normalised enrichment score”: 0.0411.
`PRAGKRLELGNLG [R4G]`: “normalised enrichment score” 0.141.
`PRARKILELGNLG [R6I]` — result for “normalised enrichment score”: 0.191.
`PRARKYLELGNLG [R6Y]`: “normalised enrichment score” 0.207.
For `PRARNRLELGNLG [K5N]`, “normalised enrichment score” read 0.108.
Under “normalised enrichment score”, `PRARCRLELGNLG [K5C]` is recorded as 0.103.

Study 4
Target: RNA binding protein fox-1 homolog 2, RRM domain, GST-SBP tag (RBFOX2, Homo sapiens, UniProt O43251-10, residues 100-194)
Method: RNA Bind-n-Seq
Form: RNA
Sample: in vitro
Tested at: 365 nM
Setting: natural RNA segment, single round, ends assumed
Reference: no-protein control
Reading: higher = stronger binding
Target sequence (chain): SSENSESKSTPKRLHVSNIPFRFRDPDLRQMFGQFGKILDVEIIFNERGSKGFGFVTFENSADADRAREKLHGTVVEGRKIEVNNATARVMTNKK
For `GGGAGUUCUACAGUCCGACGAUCAAAUCUGUGUAUAAUUAGCAAUAACAGAACUAAACCAUUGUUUAGUUGCUAAUCAUAUGUUGCUUUAUCCAUAUGCUGUAUGACUCCAUAACAUGUAUGACUUUAAAUGGUGGAAUUCUCGGGUGCCAA`, “RBNS enrichment (R)” read 3.52.
For `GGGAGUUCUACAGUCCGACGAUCUGGGCUAAGGUGGACAGGCUGUGUAAGUUUUAUCAGCUAGCAGACUGAGUGUGGGCUGGAAUUGUUCUGGUGUUGGGAGGGUCAGCUGGGAGUGUCCAUCUUUAGGGAAGUGGAAUUCUCGGGUGCCAA`, “RBNS enrichment (R)” read 0.918.
For `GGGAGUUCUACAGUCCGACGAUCCGUGGAUAGCCCCUUGGCUGCUCUCCUGCAGAGAGACAUCGGACAGACCUUAAUUCUUACUCACUGCUGUGGCUGGAGAGUAUAAGGAAUGCUUUUUCUUUUUUUCUUUCUGGAAUUCUCGGGUGCCAA`, “RBNS enrichment (R)” read 0.279.
Under “RBNS enrichment (R)”, `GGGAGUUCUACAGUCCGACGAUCCUGGCUUCUUUCACUCAGUAAUGUUUCUGAAGUUCCUCCCUGUAGUGGCAUCUAUCAGUAAUUGCUUUCCUUUUUAUUGCUGGGCUGAAUGCUGUUCCAUUGUAUGGCUGUGGAAUUCUCGGGUGCCAA` is recorded as 0.554.
Under “RBNS enrichment (R)”, `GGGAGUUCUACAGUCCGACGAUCGGUGUGUGUGCCAUGUCACAGCAUGGCCUCUCGGCCUUGGGAAGGAAGGCAGUGCCUGCUCUGCUGUGAGCCGCCAGGAACCCUCCUCCUGUCAAUGGGGGUGUAGUAUUUGGAAUUCUCGGGUGCCAA` is recorded as 0.593.
For `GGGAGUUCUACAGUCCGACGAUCAGGAGCACGGACGCCUCUGUGAGGCAUGGGAAGGUGGGAUUGUUGAACUAAUAAACGUUAAUCUGAUUGUGUGGCUAUUUUACUCUGGUGUAAAGGUUGCAGGGGCAAAGUGGAAUUCUCGGGUGCCAA`, “RBNS enrichment (R)” read 3.44.
For `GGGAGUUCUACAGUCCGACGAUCGUUGCUACUGUUCAUAGAACUGGGACUGGGAAUGUUUUCAGGUUGAUGGACUUUUUCAAGCUCAAAGUUAUGUUCCCAGACUAUCCUCACCCUUCCCCUAGUUUUGCUGAUGGAAUUCUCGGGUGCCAA`, “RBNS enrichment (R)” read 0.355.
`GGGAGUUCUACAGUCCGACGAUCUCAUUGAAAUAAAGCUACAGCACAAGACAACUUACAGAUUGUGAAACAGCGAGAAUGAAGAGCUACAUUCUUGCAGACGAGCUGUAGGUCGUACACGAAUGUCUAAAGAGUGGAAUUCUCGGGUGCCAA`: “RBNS enrichment (R)” 0.506.
For `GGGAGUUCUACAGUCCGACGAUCUCGUCCUUUGUUUGCCUUUGUGGAAAGACAGAAGGCUGGCCUCCACUCUCAGCUUGCAGGUCUUCGUGAGUCACUGAGAGGAUUCCAGGCAGCUAUCUCGAGAGCCACUGUGGAAUUCUCGGGUGCCAA`, “RBNS enrichment (R)” read 4.05.
Under “RBNS enrichment (R)”, `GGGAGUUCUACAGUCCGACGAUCCCCAGCCUGGAGCCACACCUUCUGAGGCCCCAGCCCAGACUCAUGACGCGGAGGGCAGACAGGCCGCCUGGGCCUACCAGAGCCCACUGGGACGGCAGGAAGGUGGGAUGUGGAAUUCUCGGGUGCCAA` is recorded as 0.536.
Under “RBNS enrichment (R)”, `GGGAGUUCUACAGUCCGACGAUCUUGUGAGUCUGCUAAGGUAGCUCUCACACACCUCGGCUCUGGGGUUGAUACCUGAGCCUGCAAUAGAGCCCUGAAAUCAAGAGCAUGGCUUGAGUGUGUGAAUAUGAUGUUGGAAUUCUCGGGUGCCAA` is recorded as 2.3.
`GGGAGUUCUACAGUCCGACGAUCUCCUUAGUUUUCAUAUGUUGGUUAUUCAUAUGUCUAUUUAUAUGUAUAUUUAUUUUUAUGUAUGUUACUAUGUAAAUAUGGUUUGCAGUUGUUUUUGUGUGGAAUCUUGUUGGAAUUCUCGGGUGCCAA` — result for “RBNS enrichment (R)”: 1.9.
